Assay results gathered from unrelated publications.
Numbered parts are unrelated; each lists some results of a single study. Changes are numbered by the printed parent chain.

Block 1 — technique: protein-binding microarray; form: double-stranded DNA, one strand shown; matrix: in vitro; concentration: 250 nM; setting: 60-bp whole probe; added: salmon DNA 0.4 mg/ml; baseline: random background probes; reading: higher = stronger binding; quantity: log fluorescence; all sequences stand within: GCCTAGCAC … GTCTTGATTCGCTTGACGCTGCTG
Target: Interferon regulatory factor 5, full length, phosphomimetic (IRF5, Homo sapiens, UniProt Q13568-2, residues 1-514, K96S/S451D/S453D/S456D/S462D)
TTCGAACTGAGTCTCGATTAGTGCTAG: 0.746 z-score
TCATCTAACCTCTCTAATACTGTGCTA: 0.191 z-score
TTAGAAATCGGGACTGGATTAGTGCTA: 0.189 z-score
TTCGAACTGGGGTTTCGATTAGTGCTA: 6.01 z-score
TTACGTCTCCTTTTCCTTTAGTGCTAG: 1.15 z-score
TTAGATTTCGGGTATCGATTAGTGCTA: 7.65 z-score
TTAGAACTGGGGACTTGATTAGTGCTA: -0.294 z-score
TTAGGTTGCCTACTGCTTTAGTGCTAG: -0.416 z-score
GACGGTATCCTTATCCTGGCGTGCTAG: 0.056 z-score
TTAGGACTCGACACTGGGTTAGTGCTA: -0.136 z-score
GCCGGTTTCCTTTCCCTGACGTGCTAG: 1.26 z-score
GACGGTATCGACTATCGTGACGTGCTA: 2.91 z-score
TTCATTTACATTTCCAATACGTGCTAG: 1.07 z-score
GTCGGACTGGACACTGGGGACGTGCTA: -0.742 z-score
TTAGGTTTCACTTTCCAAAAGTGCTAG: 7.32 z-score
TTAGATCGCAGTATCGATTAGTGCTAG: 5.74 z-score
TGGTTTTCCTTATTGCTTCCTGTGCTA: 1.59 z-score
GACGGTTTCCTTCTCCTAACGTGCTAG: 1.26 z-score
GACGAACTGAGTCTCTAGACGTGCTAG: -0.437 z-score
GACGATTTCGGGTTCCGAGACGTGCTA: 3.42 z-score
TATTATATATTTATGTATACGTGCTAG: 1.09 z-score
TCATGAATGCCCTCTAACACTGTGCTA: -0.134 z-score
TTAGCTTTCAGACTGGATTAGTGCTAG: 1.46 z-score

Block 2 — technique: universal PBM; form: double-stranded DNA, one strand shown; matrix: in vitro; concentration: not given; reading: higher = stronger binding; quantity: E-score
Target: Sal-like protein 4, full length isoform B (SALL4, Homo sapiens, UniProt Q9UJQ4-2, residues 1-616)
Setting: 8-mer, flanks averaged, mean of replicates
Target sequence (chain): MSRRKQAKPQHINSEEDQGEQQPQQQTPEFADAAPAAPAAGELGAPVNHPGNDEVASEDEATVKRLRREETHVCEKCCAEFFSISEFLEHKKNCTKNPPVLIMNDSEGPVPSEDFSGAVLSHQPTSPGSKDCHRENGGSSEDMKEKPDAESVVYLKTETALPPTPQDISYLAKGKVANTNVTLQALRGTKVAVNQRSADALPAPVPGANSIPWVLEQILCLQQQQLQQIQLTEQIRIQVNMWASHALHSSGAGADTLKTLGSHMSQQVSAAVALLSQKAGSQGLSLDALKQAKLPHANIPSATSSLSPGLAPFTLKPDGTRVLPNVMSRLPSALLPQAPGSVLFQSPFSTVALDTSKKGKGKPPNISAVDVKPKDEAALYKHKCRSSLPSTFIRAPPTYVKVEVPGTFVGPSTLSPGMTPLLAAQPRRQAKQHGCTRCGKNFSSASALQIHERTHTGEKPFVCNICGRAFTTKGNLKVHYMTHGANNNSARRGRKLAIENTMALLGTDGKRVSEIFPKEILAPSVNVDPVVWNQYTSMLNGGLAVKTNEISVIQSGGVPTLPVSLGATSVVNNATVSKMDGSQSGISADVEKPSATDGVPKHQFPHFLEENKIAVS
CACCGTTC: -0.0885
CGAAGCGA: -0.156
GCAAACGC: -0.16
CCCTTCCC: -0.22
AAAGACCT: -0.0261
ACATAATC: 0.326
TCTAAAGA: 0.0767
CATACGCA: 0.148
ATATCTTG: 0.284
ACTTTACT: 0.155
ACCGGTGG: -0.333
AACCTGTA: 0.164
ACCGTCGC: -0.21
AAGCACAA: 0.164
GGTGCGTA: -0.123
CGTGCTAA: 0.022
AGGCGTGC: -0.118
GAAGCCGA: -0.226
TGTGCACA: 0.17
ATAATGAT: 0.347
AACTTGGG: -0.0435
CTATGGTC: -0.0116
CTAAGTTA: 0.226
ATGACGCA: 0.0578
AAAAACGT: 0.148

Block 3 — technique: RNA Bind-n-Seq; form: RNA; matrix: in vitro; concentration: 200 nM; setting: whole 134-nt RNA, ends assumed; added: 150 mM LiCl; baseline: input library; reading: higher = stronger binding; quantity: log2 enrichment; each molecule: 7-deaza-guanosine replaces G
Target: Ras GTPase-activating protein-binding protein 1, full length (G3BP1, Homo sapiens, UniProt Q13283)
Sequence of UniProt Q13283 (whole entry, looked up): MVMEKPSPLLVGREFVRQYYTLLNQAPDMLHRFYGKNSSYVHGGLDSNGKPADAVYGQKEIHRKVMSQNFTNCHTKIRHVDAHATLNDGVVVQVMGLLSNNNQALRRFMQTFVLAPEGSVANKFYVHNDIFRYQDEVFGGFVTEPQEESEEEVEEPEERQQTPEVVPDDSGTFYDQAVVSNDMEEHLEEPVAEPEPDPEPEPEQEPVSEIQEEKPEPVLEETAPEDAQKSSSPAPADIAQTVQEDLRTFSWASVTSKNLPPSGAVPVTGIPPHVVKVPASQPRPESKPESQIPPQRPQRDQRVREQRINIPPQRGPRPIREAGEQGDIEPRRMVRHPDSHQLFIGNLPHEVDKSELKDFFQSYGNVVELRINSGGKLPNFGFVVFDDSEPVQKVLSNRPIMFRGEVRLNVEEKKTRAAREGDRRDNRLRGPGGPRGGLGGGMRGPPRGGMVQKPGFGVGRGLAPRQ
All sequences stand within: GGGAGUUCUACAGUCCGACGAUC … UGGAAUUCUCGGGUGUCAAGG
UUUUUCCAGAGCUCACAACGACCUGGGGCUGAGGACAAUGUCCUCAAUGAGAUCGUGAGUAUCUUGCAGCCCACCCAGGUCCCUGAGCAG: -1.01
UCCUGUGCUACACAUCGUAUGUACCGAAUCAAAUUUAAAUUUUUUUAAACCCCCCCAAAAAAGUAUUAUGUUACGCCGUUCGGAUCUGCA: 1.41
ACCAUGCAGGUGGGCAUCUUUGGGAAGUGGGGCAAGGGGGGGAUAGGGAGGGGGGUAGCACUUUGGGAACAGGUGGUCCCAGGUCGUUUC: 0.202
UAGUCACCUACUGCCACCUUCGAAAAACACGGAGAGCACCUACCCAGAGGAGAAGGUAGAUUUGGAGUAAGCCGCCGUCGACAUAAUUCC: 0.0737
AAGUCCUGUGCUACACAUCGUAUGUACCGAAUCGGGAAAAGGGAAAAGGGAAAAGGGAAAGUAUUAUGUUACGCCGUUCGGAUCUGCACU: 0.341
UCCUGUGCUACACAUCGUAUGUACCGAAUCAAAUUUUUAAACCCCCAAAUUUUUUUAAAAAAGUAUUAUGUUACGCCGUUCGGAUCUGCA: 0.664
UCCCUAUUCCAGUCAUACACGUGGACCUAACUGCACCAGUAGCUUUUCUGAGAAUACUUGCUGAAAAGGAAGUUUUCUGGAAUGGGUAAG: -0.229
AAGUCCUGUGCUACACAUCGUAUGUACCGAAUCGGUUUUGGUUUUGGGGUUUUGGGGAAAGUAUUAUGUUACGCCGUUCGGAUCUGCACU: 0.0534
UACCUGAUCAAUGACAGAGCCUUCUGAGGACAUUCCAAGACAGUAUACAGUCCUGUGGUCUCCUUGGAAAUCCGUCUAGUUAACAUUUCA: -1.13
UGGGAGGUGGAUUUUGUUUAUUUUUUUAGCUCACUUCCAGGGGUGGGAAUUUUUUUUUAAUAUGUGUCAUGAAUAAAGUUGUUUUUGAAA: 0.0521
UCCUGUGCUACACAUCGUAUGUACCGAAUCAAAGUGUGUGUGUGAAAUGUGUGUGUGAAAAAAGUAUUAUGUUACGCCGUUCGGAUCUGC: -1.3

Block 4 — target: CCNB3, cyclin fold, Cln2 fusion (human); technique: yeast growth competition, sequencing; matrix: yeast; setting: weak parent motif; baseline: not given; reading: higher = stronger binding; quantity: normalised enrichment score
Starting sequence: SAMHD1 docking peptide (human); ASKSRVQLFKDDP; partner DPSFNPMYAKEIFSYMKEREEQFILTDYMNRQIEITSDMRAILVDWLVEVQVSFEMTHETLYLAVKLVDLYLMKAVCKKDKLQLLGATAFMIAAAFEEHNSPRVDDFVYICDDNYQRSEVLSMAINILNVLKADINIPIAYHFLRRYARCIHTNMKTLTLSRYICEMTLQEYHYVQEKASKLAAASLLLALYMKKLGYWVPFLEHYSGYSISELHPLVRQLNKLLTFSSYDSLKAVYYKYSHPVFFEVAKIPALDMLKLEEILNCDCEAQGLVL
S4N: -0.131
Q7K: 0.123
S2V: 0.0676
D12M: -0.0139
F9Q: -0.112
K3E: 0.0318
S2I: 0.284
S4D: -0.0391
R5V: -0.13
S2P: -0.128
D11W: -0.408
K3M: -0.0242
S4H: -0.0206
R5S: -0.409
D11E: 0.14
L8T: -0.0783
F9T: -0.181
L8Q: -0.204
S4C: 0.768
D11K: 0.576
S2C: -0.139
S2F: 0.137
D12S: -0.0141
L8A: -0.354
L8M: -0.00473

Block 5 — target: UBE2U UBC core domain (UniProt Q5VVX9); technique: yeast two-hybrid; matrix: yeast; setting: mostly zero background; baseline: not given; reading: higher = stronger interaction; quantity: lacZ reporter activity
B1: RNF121 RING domain (UniProt Q9H920); chain MPTKHLSDSVCAVCGQQIFVDVSEEGIIENTYRLSCNHVFHEFCIRGWCIVGKKQTCPYCKEKVDLKRMFS
B2: SYTL4 RING domain (UniProt Q96C24); chain RGSQHYSDRTCARCQESLGRLSPKTNTCRGCNHLVCRDCRIQESNGTWRCKVCAKEIELKKAT
B3: RBCK1 RING domain (UniProt Q9BYM8); chain SLVLNTEPAECPVCYSVLAPGEAVVLRECLHTFCRECLQGTIRNSQEAEVSCPFIDNTYSCSGKLLEREIK
B4: RNF133 RING domain (UniProt Q8WVZ7); chain DEEINPNGDSCVICFERYKPNDIVRILTCKHFFHKNCIDPWILPHGTCPICKCDILKVLGIQ
B5: DZIP3 RING domain (UniProt Q86Y13); chain PDEEEEEEEPCVICHENLSPENLSVLPCAHKFHAQCIRPWLMQQGTCPTCRLHVLLPEEFP
B6: SH3RF1 RING domain (UniProt Q7Z6J0); chain DESALLDLLECPVCLERLDASAKVLPCQHTFCKRCLLGIVGSRNELRCPECRTLVGSGVEEL
B7: RFWD3 RING domain (UniProt Q6PCD5); chain ASMDEEEGDTCTICLEQWTNAGDHRLSALRCGHLFGYRCISTWLKGQVRKCPQCNKKARHSDIVV
B8: ZMIZ2 RING domain (UniProt Q8NF64); chain GTIPGTPGPNGEDGVEQTAIKVSLKCPITFRRIQLPARGHDCRHIQCFDLESYLQLNCERGTWRCPVCNKTALLEGLEVDQYMLGILIYIQNSDYEEITIDPTCSWK
B9: DTX2 RING domain (UniProt Q86UW9); chain EELKVPPDEDCIICMEKLSTASGYSDVTDSKAIGSLAVGHLTKCSHAFHLLCLLAMYCNGNKDGSLQCPSCKTIYGEKTGTQ
Residues (chain): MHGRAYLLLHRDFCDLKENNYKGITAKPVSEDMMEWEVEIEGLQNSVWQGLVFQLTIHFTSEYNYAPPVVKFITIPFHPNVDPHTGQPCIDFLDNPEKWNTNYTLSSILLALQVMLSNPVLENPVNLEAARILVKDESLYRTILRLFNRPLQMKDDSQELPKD
B1 (RNF121 RING domain): 10700
B2 (SYTL4 RING domain): 0
B3 (RBCK1 RING domain): 0
B4 (RNF133 RING domain): 15900
B5 (DZIP3 RING domain): 0
B6 (SH3RF1 RING domain): 0
YQNEVDDDLVCHICLQPLLQPLDTPCGHTFCYKCLRNFLQEKDFCPLDRKRLHFKLCKK (LNX2 RING domain (UniProt Q8N448)): 5320
B7 (RFWD3 RING domain): 0
B8 (ZMIZ2 RING domain): 0
B9 (DTX2 RING domain): 3810
AVPSGLEENLCKICMDSPIDCVLLECGHMVTCTKCGKRMNECPICRQYVIRAVHVF (RFFL RING domain (UniProt Q8WZ73)): 0
KETIKKTTKPCPRCHVPVEKNGGCMHMKCPQPQCRLEWCWNCGCEWNRVCMG (PRKN RING domain (UniProt O60260)): 0

For quick reference, copied from above (block 4):
L8Q: -0.204
S4C: 0.768
D11K: 0.576
S2C: -0.139
S2F: 0.137
